{"data": "Published values pooled from the literature", "note": "Protocols differ between the studies behind these lines. ± marks the error that the study gave."}
{"SMILES": "Cc1cn(-c2cc(NC(=O)c3ccc(C)c(Nc4nccc(-c5cccnc5)n4)c3)cc(C(F)(F)F)c2)cn1", "test": "population PK model", "system": "human, plasma", "conditions": "oral, bootstrap estimate", "clearance": "34.5 L/h"}
{"SMILES": "CN(C)CCCNC(=O)/C(=C/CCCCC(=O)NO)COc1cccc2ccccc12", "system": "human", "conditions": "iv, 187.5 mg/m2, day 1, single dose, mean", "clearance": "6.49 L/h"}
{"SMILES": "NS(=O)(=O)OC[C@@H]1C[C@@H](n2ccc3c(N[C@H]4CCc5ccccc54)ncnc32)C[C@@H]1O", "system": "human, plasma", "conditions": "day 1 cycle 1, median, all dose levels", "clearance": "18.3 L/h/m2"}
{"SMILES": "O=C(/C=C/c1cccc(S(=O)(=O)Nc2ccccc2)c1)NO", "system": "human patients, plasma", "conditions": "1900 mg/m^2", "clearance": "28 L/h/m²"}
{"SMILES": "Cc1ccc([C@@H]2O[C@H](CO)[C@@H](O)[C@H](O)[C@H]2O)cc1Cc1ccc(-c2ccc(F)cc2)s1", "system": "human, maintenance hemodialysis patients", "conditions": "oral, 300 mg once daily, steady state, median", "clearance": "14 L/h"}
{"SMILES": "NC(=O)N1c2ccccc2CC(O)c2ccccc21 (stereo not drawn)", "test": "population PK modelling", "system": "human patients, plasma", "conditions": "weight-scaled, with back-conversion", "clearance": "2.76 L/h"}
{"SMILES": "CN[C@@H](C)C(=O)N[C@H]1CN(S(=O)(=O)c2cccc(S(=O)(=O)N3CC[C@H]4CC[C@@H](C(=O)NC(c5ccccc5)c5ccccc5)N4C(=O)[C@@H](NC(=O)[C@H](C)NC)C3)c2)CC[C@H]2CC[C@@H](C(=O)NC(c3ccccc3)c3ccccc3)N2C1=O", "test": "LC-MS/MS, noncompartmental", "system": "human, plasma", "conditions": "30 mg, cycle 1 day 1", "clearance": "39.4 ± 18.4 L/h"}
{"SMILES": "Nc1ccn([C@@H]2O[C@H](CO)[C@@H](O)C2(F)F)c(=O)n1", "test": "HPLC-UV", "system": "human, plasma", "conditions": "800 mg/m^2, median, before paricalcitol", "clearance": "49.1 L/h/m²"}
{"SMILES": "CN(C)N=Nc1[nH]cnc1C(N)=O", "system": "human patients, plasma", "conditions": "intravenous, 1000 mg/m^2 over 1 h, cycle 2 day 1, staggered with twice-weekly co-drug", "clearance": "12.5 L/h/m²"}
{"note": "A few entries again:"}
{"SMILES": "Cc1ccc([C@@H]2O[C@H](CO)[C@@H](O)[C@H](O)[C@H]2O)cc1Cc1ccc(-c2ccc(F)cc2)s1", "system": "human, maintenance hemodialysis patients", "conditions": "oral, 300 mg once daily, steady state, median", "clearance": "14 L/h"}
